Experimental data collected from several papers.
Every numbered part comes from another study and shows a few of its results, in no order. Positions count from the first letter of the parent shown.

Series 1 — technique: RNA Bind-n-Seq; molecule type: RNA; medium: in vitro; concentration: not given; relative to: input RNA pool; direction: higher = stronger binding
Target: RING finger protein unkempt homolog, zinc fingers 1-6, GST-SBP tag (UNK, Homo sapiens, UniProt Q9C0B0, residues 30-357)
UniProt Q9C0B0, sequence (30-357, looked up): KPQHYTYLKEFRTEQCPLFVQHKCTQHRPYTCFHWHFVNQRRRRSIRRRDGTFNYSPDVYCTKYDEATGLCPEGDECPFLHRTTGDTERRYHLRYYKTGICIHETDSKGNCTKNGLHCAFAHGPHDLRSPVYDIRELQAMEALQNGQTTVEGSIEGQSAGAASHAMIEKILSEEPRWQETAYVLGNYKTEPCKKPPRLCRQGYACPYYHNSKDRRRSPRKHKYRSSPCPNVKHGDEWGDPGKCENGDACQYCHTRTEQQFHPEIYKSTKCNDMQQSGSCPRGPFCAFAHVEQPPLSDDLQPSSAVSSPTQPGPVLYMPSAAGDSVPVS
Notes: RNA with constant flanks, human-mouse chimeric sites, ends assumed
Constant ends, left off below: GGGAGUUCUACAGUCCGACGAUC … CAACAGAGGAUUGAGCAUCA
Oligonucleotide	bound/input enrichment [ratio]
UGUAGUUGAUCCCCUGCUCAUUUUUCUUGCUCGGGUUUUUCCUUUAGGAAAAGCCUAAAGAUUAGGUUGUAAGAAAAACAGAAGCCAUGUUUCGAAGACCUGUGUUACAGGUAUUUCGUC	0.127
ACUCAGAGAUCCACCUCCCAAAGUGCUGGGAGUAAAGGUGUGGCCACCACACCUAACUUGAUGGAUAUUUUAUAAAGUUAAUAUGAAUCUUCCUGUUCGUCCAGGGAAGAAAGAUUUGUU	0.464
AGAUUCCCCCUCCUGAGACCUCCUCCGAAGUUGGAGUCUCUUACAGAUGGUUCAUCUCCUGUUAGCGUUUUAGUUUGGACCACCCAGCCUUGGACAAUUCCAGCCAACCAGGCAAUUUGC	2.43
AAAGCCCAAGUAUUUUGAAAAAACUCGAACAGAUUUGACAAGGGUAGCCAGCUUGGAGUCUAGCAACUUGCCAAUGUGUUUACCAAUCUGGGGGCUUUGUUUUUCUUCCCUUCCUUAAAU	0.403
UACUACUGAAUCUGUGAUAUUGGCAAUUAUUAUUAUGGCCAGGGUCAUCCCAUGAAGCCUCAUAGAAUCCGCAUGACUCAUAACUUGCUGCUAAAUUAUGGUUUAUACCGAAAAAUGGAA	0.236
GGUGGGGUGGUCAUUGCCGUUUGAGCUGCUGAUUUUCAUGAGUCGCCCAUUCAGAACUCGCAUAGGGUUGACAAUGUGGGGGGGUGGGGGAUCCAGCUUAUUCUUUUAUUUUCAAGUCCA	0.539
CUCGGCACCGGCACGCUUUACAUCGCUGAGAGCCGCCUGUCCUGGUUAGAUGGUUCGGGAUUAGGAUUCUCACUGGAAUACCCCACCAUUAGUUUACAUGCGGUGUCCAGGGAUCCAAAC	0.337
GGCCUGGACCUUCCUGGGGCUAGUACAAUAGCGGCAGGUGGAGGCUCGAGAGGAAAGUUUGUUAGUGGAGGCAGUGGUAGAGGCCGUCAUGUACGGUCCUUUACUCGAUAGAUGUGUUCU	0.377
GUAUACGGUUAUCGAGGAAAGGACUGUAGAGCGAAUGUAUACCUGCUUCCCACAGGGGAGAUAGUUUAUUUCAUUGCAUCAGUAGUAGUCCUGUUUAAUUAUGAGGAGAGGACUCAGCGA	1.31
UUCUAGUAUGAUGGUGAUAUUGGCAAUUAUUAUUAUGGACAGGGUCAUCCCAUGAAGCCUCAUAGAAUCCGGAUGACUCAUAACUUGCUGCUAAAUUAUGGUUUAUACCGAAAAAUGGAA	0.411
UUUCUACUGCAGCAAACGAUGCUAAGAAUUAAGGAUCCUAAGAAGUCCCUGGAUUUUUAUACGAGGGUUCUUGGACUGACCCUCCUGCAGAAGCUUGAUUUUCCCAUUAUGAAGUUCUCG	0.5

Series 2 — technique: DHFR PCA, deep sequencing; medium: yeast; together with: (+)-ABA 0.39 µM; relative to: wild-type fitted maximum; direction: higher = stronger binding
Target: ABI1, truncated, D143A, DHFR fusion (Arabidopsis thaliana)
Notes: methotrexate growth selection, single substitutions
Starting sequence: PYL1, truncated, DHFR fusion (Arabidopsis thaliana); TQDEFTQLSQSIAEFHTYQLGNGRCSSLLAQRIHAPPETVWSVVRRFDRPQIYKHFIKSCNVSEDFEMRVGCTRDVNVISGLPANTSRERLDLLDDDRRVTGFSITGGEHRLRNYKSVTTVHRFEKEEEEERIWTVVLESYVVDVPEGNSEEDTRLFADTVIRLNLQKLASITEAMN
Substitution	relative binding score [%]
E14S	4.67
E174G	-12.2
L166P	12.9
E129D	68.9
D3V	23.6
S150E	2.96
Y18S	1.15
P36V	2.18
H16Y	3.43
V70C	-3.33
S87G	-1.42
V142H	2.94
A158V	82.4
V76E	-9.52
R132K	67.8
E67W	6.94
I12Q	-0.296
E67F	3.34
V136E	-9.58
N114T	-15.4

Series 3 — technique: RNA Bind-n-Seq; molecule type: RNA; medium: in vitro; concentration: 365 nM; relative to: no-protein control; direction: higher = stronger binding
Target: RNA binding protein fox-1 homolog 2, RRM domain, GST-SBP tag (RBFOX2, Homo sapiens, UniProt O43251-10, residues 100-194)
Notes: natural RNA segment, single round, ends assumed
Constant ends, left off below: GGGAGUUCUACAGUCCGACGAUC … UGGAAUUCUCGGGUGCCAA
Construct (chain): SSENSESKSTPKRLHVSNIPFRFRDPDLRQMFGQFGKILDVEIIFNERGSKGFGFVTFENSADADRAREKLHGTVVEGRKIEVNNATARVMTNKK
Oligonucleotide	RBNS enrichment (R)
UCCUGUGUUCUCACCACUGUCCCUCUAGCCCUGACUGCAAGUAUGCAGUGCUGGAUGACGGGCAGUGUGCAAGGCAUCCCAGCAUUCAUGGUCCCUUGUUAGUGUUGUGC	0.531
GUGUUGUUGUUGCCUUACAGAGGACUACAAGUAUAAAGCAAAUAGCUGUUUUAAAAUUAUGUAAAUAAGUCACAGGCUAGUUAUUUGAAAACUCUAAGUCACUUUAAUUU	0.348
CUCACCCCAGACCACUUAAAUCCUAUCUUUGGUAAAACGCAGGUAUCAGAGAAGCAUAUUUCCCUUGUGUCUCUUAAUACUGUCAUCUUGAAACUCUCUCUAGGAAAAAU	0.407
GCUGGGAGUCGGCCUUUCCUCUAGUAACCACCACAUGGCUCAGCAUCUGUGCCAAACAUAGGCGCUCCUAGUCUGGUCAGUGCCAAGAGGCUACCAGAACAUGGGGCAGG	0.477
CAUAUUUAUUUAUUUGUGUUCACGUCAGUUUGUUUCAUAUCUUAGCUUUCUUUCACCCAGCUUUGUUGUUUUAAUUAACUGCCCAUUAGAGAGACUGUACUUUUUUUCUA	0.37
AAUCAUGACAUGCACGGACACGUACAUAUUUAACUGAAACAAGUUUUACCAAACAGUAUUUACUCGUGAUGUGCGUAGUGCAUUCUGAUAUUUUUGAGCCAUUCUAUUGU	0.311
UCCUAGCCAGCUUCCCUUCACCUGGUGUCUUGAGUAGGGCGUCUCCUGUAAUUACUGCCUUGCCAUUCUGCCCCUGGACCCUUCUCUCCGGACCAGGGAGGCGUCCCUCC	1.55
AACUCUAGAUUUUUUGGUAAACUAUCAAUCUGUAUAUGUUGUAAUUAAGUGUCUAAUGCUAGGAGUUUAUUGGAAGUGUUUAAGAAAUAAAAGAACUCAACUUUUACACU	0.553
CCGUCUGUCUCCUUUCACCUCUGCGCCAGGUCGGUCCUCCCUGCCAACCUUCCCCAGCUCCAAUAUGUAGCAGUCUCUCUGGAUGGCGGAGAGUGAAGGAGACGGAGAAA	0.536
AUUGGUGGGCAGGGGGUUUGCUUAUGAGUUUUCUCUGGAAACCGAUUUUACUCCUGGAUGUAUUGAAUGCCCCUUGAGCUUUAUGAGAUACGAGUCCACAUGGAUAAAAU	0.628
UUUGAGAGAAAUUAUUCAGAUUUUAUUUUUAUAUCCAUGGUAACAGAACCUAACCAAAAGGUUUCCCGUUCAGAAGUUUCCUUAGCUCUCGUCCCAAGCUAUUCGCUCAC	0.346
GUAGUGGCAGAGGACUGAGGGUACCUGCACAGUUUGAUUCUUUUCCACGUGUAAGUCUCCAUUGCAGAAUUGUCGUGCUUUGAGAAAACACCUGAGGCAGUGUGGGAGUU	0.483

Series 4 — technique: RNAcompete; molecule type: RNA; medium: in vitro; concentration: 20 nM; notes: 7-mer, probes averaged, single round; relative to: mean of 7-mers; direction: higher = stronger binding
Target: PABPC1L2, full length, GST fusion (mouse, UniProt A0ABA7IW68)
Target sequence (chain): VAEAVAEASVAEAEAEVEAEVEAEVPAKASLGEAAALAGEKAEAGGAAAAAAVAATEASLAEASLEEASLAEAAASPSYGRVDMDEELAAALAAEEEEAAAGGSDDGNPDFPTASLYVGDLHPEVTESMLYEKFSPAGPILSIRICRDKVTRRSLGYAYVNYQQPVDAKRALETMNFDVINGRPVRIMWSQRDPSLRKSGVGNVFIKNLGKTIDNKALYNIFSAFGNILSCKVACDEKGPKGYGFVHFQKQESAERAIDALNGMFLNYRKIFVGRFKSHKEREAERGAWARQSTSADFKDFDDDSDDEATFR
Oligonucleotide	7-mer Z-score
UAUAUCG	-0.224
GCUACCU	-0.287
CCUCCAG	-0.342
UCGACGG	-0.0808
CUUCGGG	-0.177
AAAACUA	4.1
UACCUUG	-0.329
AUGCGGA	0.307
AUCACGU	-0.291
GCUCGCA	-0.315
CCACAGA	-0.0953
CUCGAGA	-0.144
AUUUGUU	-0.403
CAUUUAU	0.274
GUGGAAA	0.702
UGAUGGG	0.0678
CGCGAGG	-0.246
AGCCUAG	-0.132
CAAGAGC	0.128
CUGUCGG	-0.162
GUCGUAC	-0.358
GGCACGA	0.296
CCAGUUC	-0.364
GGGAUUU	0.153

Series 5 — technique: universal PBM; molecule type: double-stranded DNA, one strand shown; medium: in vitro; concentration: not given; direction: higher = stronger binding
Target: Sal-like protein 4, full length isoform B (SALL4, Homo sapiens, UniProt Q9UJQ4-2, residues 1-616)
Notes: 8-mer, flanks averaged, mean of replicates
Oligonucleotide	E-score
AGCAGAAA	0.136
CAGCGTCG	-0.213
CGATAACG	-0.0717
GCCCCGGC	-0.381
CCCTAGCG	-0.254
AGGACTGC	-0.358
AGGTCGAT	-0.0512
AAAGTAAC	0.112
ACGGAGCC	-0.275
AGATTATC	0.187
CAGAGACC	-0.189
AATCGGTC	-0.0867
ATGACTTA	0.179
ACTTTGGA	0.195
GCATTCTA	0.152
CGTCGCCC	-0.327
ATTCCGCG	-0.227
CTCTCCGA	-0.217
AGGCGGCA	-0.254
ATTCCCAG	-0.0698
CGATCTAC	-0.0208
ATCGCAAC	-0.0164
GGCGGATA	-0.146
CCGTTTGC	-0.235

Series 6 — target: CCNB3, cyclin fold, Cln2 fusion (human); technique: yeast growth competition, sequencing; medium: yeast; notes: weak parent motif; relative to: not given; direction: higher = stronger binding
Starting sequence: DNAH7 docking peptide (human); HELFQRLDFDNDG
Substitution	normalised enrichment score
HELFARLDFDNDG [Q5A]	0.599
HALFQRLDFDNDG [E2A]	0.43
HELFQRLDADNDG [F9A]	-0.0582
HELAQRLDFDNDG [F4A]	-0.0769
HEAFQRLDFDNDG [L3A]	-0.23
HELFQRLDFDNDA [G13A]	0.348
AELFQRLDFDNDG [H1A]	0.344

For quick reference, copied from above (series 5):
Oligonucleotide	E-score
AGCAGAAA	0.136
CAGCGTCG	-0.213
CGATAACG	-0.0717
GCCCCGGC	-0.381
CCCTAGCG	-0.254
AGGACTGC	-0.358
AGGTCGAT	-0.0512
AAAGTAAC	0.112
ACGGAGCC	-0.275
AGATTATC	0.187
